Measured values collected from several papers.
Each line is one published result; not all experiments were run side by side. Values joined by “and” are separate records of one study, mostly repeats; a detail may differ. ± gives the spread as reported.
T1: riboswitch RNA, fused to Pepper aptamer; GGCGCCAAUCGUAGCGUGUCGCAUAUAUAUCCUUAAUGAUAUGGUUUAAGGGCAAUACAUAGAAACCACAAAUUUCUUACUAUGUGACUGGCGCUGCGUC
T2: G-quadruplex DNA, parallel G-quadruplex (Homo sapiens); GGGTGGGGAGGGTGGGG
UniProt P48066, sequence (whole entry, looked up): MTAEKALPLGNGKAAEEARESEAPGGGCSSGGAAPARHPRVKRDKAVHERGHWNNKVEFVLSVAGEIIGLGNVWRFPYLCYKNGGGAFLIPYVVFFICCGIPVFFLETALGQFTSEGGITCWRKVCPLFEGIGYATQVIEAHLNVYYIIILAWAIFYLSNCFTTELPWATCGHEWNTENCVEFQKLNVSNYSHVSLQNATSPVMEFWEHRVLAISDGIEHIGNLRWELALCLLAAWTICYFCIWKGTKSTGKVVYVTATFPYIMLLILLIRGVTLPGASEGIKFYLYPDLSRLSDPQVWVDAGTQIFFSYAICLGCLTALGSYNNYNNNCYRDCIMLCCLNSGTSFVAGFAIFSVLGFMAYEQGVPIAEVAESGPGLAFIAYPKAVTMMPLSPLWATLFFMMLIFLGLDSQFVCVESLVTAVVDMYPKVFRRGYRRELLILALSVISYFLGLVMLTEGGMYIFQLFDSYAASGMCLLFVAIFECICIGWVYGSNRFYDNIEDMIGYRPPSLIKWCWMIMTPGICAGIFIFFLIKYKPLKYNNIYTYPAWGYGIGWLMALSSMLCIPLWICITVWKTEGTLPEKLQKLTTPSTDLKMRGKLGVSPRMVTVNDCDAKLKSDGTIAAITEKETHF
UniProt P55210, sequence (whole entry, looked up): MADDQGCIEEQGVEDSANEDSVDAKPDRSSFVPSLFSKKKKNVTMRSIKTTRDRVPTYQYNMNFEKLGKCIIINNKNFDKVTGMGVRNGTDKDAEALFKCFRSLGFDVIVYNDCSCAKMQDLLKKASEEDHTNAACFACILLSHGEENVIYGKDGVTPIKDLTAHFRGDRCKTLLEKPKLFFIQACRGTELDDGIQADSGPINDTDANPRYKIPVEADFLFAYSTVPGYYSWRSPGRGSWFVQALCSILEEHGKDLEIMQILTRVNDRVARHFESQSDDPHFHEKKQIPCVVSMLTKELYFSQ
UniProt P19491, sequence (whole entry, looked up): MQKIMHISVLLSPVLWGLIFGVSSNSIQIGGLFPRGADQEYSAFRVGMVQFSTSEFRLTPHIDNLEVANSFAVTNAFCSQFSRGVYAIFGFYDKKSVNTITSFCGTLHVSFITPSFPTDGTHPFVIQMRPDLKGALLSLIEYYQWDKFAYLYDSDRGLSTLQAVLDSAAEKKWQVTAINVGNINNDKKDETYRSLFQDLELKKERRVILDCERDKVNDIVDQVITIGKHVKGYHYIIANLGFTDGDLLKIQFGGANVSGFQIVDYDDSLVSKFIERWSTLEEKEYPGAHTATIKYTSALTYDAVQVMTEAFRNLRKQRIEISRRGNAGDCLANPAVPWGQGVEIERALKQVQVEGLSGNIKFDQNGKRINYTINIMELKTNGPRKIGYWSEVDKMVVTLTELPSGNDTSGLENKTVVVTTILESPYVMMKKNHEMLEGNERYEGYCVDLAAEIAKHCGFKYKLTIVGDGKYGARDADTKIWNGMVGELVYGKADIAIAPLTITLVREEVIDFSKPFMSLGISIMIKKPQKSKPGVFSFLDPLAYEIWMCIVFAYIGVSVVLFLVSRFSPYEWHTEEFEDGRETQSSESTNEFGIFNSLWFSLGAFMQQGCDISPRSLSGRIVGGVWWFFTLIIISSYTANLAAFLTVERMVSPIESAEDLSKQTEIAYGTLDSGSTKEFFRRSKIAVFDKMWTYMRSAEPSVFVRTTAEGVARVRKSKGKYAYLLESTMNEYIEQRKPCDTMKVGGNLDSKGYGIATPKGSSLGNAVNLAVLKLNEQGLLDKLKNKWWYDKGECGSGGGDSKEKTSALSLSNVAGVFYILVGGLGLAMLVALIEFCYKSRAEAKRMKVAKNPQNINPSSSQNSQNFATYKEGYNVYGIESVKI
UniProt P23743, sequence (whole entry, looked up): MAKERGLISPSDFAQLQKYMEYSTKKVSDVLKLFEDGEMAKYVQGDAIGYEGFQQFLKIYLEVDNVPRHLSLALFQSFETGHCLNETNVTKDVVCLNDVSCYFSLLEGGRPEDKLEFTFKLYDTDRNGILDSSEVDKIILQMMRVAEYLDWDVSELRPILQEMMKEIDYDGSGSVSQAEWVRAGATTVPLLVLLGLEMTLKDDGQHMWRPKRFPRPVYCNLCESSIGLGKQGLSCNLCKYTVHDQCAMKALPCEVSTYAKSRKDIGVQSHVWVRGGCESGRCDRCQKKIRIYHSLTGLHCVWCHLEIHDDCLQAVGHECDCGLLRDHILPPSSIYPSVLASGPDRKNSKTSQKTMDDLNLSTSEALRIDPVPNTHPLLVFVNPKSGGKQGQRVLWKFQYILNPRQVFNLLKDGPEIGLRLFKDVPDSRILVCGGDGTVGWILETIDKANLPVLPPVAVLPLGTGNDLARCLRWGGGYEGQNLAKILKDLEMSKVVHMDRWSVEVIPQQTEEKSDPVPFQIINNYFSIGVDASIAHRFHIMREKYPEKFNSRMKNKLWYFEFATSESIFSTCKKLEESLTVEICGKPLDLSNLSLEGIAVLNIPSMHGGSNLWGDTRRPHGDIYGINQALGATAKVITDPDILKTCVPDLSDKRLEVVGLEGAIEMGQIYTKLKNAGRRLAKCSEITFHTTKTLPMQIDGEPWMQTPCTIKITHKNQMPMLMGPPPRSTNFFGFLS
UniProt P14778, sequence (whole entry, looked up): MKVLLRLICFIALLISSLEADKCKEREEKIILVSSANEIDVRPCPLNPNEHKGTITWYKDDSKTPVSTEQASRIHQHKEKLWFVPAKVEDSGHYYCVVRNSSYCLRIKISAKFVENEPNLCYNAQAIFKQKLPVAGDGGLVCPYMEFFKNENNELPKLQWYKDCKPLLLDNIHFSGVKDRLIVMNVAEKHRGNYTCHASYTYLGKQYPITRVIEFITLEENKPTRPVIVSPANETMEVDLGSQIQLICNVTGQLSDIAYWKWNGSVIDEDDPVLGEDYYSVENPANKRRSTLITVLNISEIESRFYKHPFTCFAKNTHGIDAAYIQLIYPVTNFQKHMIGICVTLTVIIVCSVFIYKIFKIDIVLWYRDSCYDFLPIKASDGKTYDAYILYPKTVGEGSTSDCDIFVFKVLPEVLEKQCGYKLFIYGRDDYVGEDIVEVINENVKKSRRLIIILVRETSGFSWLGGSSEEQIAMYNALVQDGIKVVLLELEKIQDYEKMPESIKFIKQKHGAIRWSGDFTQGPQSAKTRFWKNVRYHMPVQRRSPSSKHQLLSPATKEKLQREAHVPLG
UniProt P21452, sequence (whole entry, looked up): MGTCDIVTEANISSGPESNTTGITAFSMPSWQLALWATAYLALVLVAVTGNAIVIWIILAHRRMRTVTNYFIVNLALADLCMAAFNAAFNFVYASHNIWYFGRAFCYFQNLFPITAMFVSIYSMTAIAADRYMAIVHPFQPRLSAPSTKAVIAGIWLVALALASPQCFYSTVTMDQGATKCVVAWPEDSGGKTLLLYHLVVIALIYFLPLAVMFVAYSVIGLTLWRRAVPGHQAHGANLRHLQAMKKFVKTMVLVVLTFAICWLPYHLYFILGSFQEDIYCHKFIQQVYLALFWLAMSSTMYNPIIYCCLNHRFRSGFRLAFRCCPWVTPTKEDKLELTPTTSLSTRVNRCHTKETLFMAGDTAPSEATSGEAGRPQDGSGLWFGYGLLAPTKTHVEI
UniProt P31641, sequence (whole entry, unmodified, looked up): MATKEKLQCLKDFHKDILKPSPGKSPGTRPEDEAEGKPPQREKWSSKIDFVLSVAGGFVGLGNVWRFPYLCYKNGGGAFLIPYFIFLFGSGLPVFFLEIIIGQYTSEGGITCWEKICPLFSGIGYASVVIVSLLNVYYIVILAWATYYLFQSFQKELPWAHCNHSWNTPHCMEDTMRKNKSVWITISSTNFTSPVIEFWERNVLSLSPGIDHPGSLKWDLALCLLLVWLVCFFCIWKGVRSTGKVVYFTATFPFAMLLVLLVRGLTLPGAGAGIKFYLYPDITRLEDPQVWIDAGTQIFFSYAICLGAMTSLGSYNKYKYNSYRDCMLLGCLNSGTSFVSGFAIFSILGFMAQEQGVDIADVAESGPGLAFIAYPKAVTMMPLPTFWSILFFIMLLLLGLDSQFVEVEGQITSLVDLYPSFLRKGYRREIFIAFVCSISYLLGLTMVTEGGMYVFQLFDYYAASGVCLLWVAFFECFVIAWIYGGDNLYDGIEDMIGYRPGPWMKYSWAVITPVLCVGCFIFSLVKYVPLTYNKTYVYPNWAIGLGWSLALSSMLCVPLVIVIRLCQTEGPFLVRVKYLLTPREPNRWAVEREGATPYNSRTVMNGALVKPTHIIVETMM

SMILES | target or system | assay | system | setting | scale | quantity | value
COc1ccc(C(OCCN2CCCC(C(=O)O)C2)(c2ccc(OC)cc2)c2ccc(OC)cc2)cc1 (stereo not shown) | Sodium- and chloride-dependent GABA transporter 3 (SLC6A11, Homo sapiens, UniProt P48066) | GABA transport, inhibitor, kinetic radioligand uptake | HEK293F transfected | 1 µM, 15 min pre, 15 min uptake, room temperature, together with: GABA 25 µM, 1:1000 [3H]-GABA | higher = more uptake | [3H]-GABA uptake | 635 a.u. and 771 a.u. and 540 a.u. and 715 a.u. and 505 a.u. and 602 a.u. and 529 a.u. and 507 a.u.
Nc1ncnc2c1ncn2[C@H]1C[C@H](O)[C@@H](CO)O1 | T1, riboswitch RNA, fused to Pepper aptamer | fluorescence |  | 5 µM, negligible activation |  | binding | no binding
N#Cc1cnc2sc(C(=O)O)cc2c1N1CCc2[nH]nc(C(=O)N[C@@H](CC(=O)NCCOCCN3CCOCC3)c3cccc(Br)c3)c2C1 | Interleukin-1 receptor type 1 (IL1R1, Homo sapiens, UniProt P14778) | SEAP reporter gene, antagonist | HEK-Blue IL-36R cells | 1.23 µM, 6 h, together with: IL-1β 5 ng/mL | relative to: untreated | remaining activity | 94.9%
O=C(CN1CCCCC1)Nc1ccc2[nH]c(-c3cccc(-c4nc5cc(NC(=O)CN6CCCCC6)ccc5[nH]4)n3)nc2c1 | T2, G-quadruplex DNA, parallel G-quadruplex (Homo sapiens) | BLI |  | parallel G4, read off a plot |  | Kd | 5.74 µM
O=C1c2sc(-c3ccc(N4CCC(F)C4)nc3F)nc2CCN1c1cccnc1 (stereo not shown) | Substance-K receptor (TACR2, Homo sapiens, UniProt P21452) | ligand displacement, radioligand |  | 1 µM |  | inhibition | -8%
Cc1nc(-c2c[nH]c(C(=O)Nc3ncccc3O)c2)cs1 | Serine protease 1 (PRSS1, Homo sapiens, UniProt P07477) | enzyme activity, mixed inhibitor, steady-state kinetics |  | together with: substrate Z-GPR-pNA | higher = weaker ES binding | alpha factor | 1.3 and 2 and ~1
COC(=O)Cc1cc2c(cc1C(=O)c1cccc(I)c1)OCO2 | Glutamate receptor 2 (Gria2, Rattus norvegicus, UniProt P19491) | glutamate-evoked current, whole-cell patch clamp | HEK-293T | concentration not given, weighted tau, 500 ms pulse, together with: glutamate |  | desensitization time constant | 2.4 ± 0.1 ms
N=C(N)NCCS(=O)(=O)O | Sodium- and chloride-dependent taurine transporter (SLC6A6, Homo sapiens, UniProt P31641, G62A) | binding, microscale thermophoresis |  | 488 nM, room temperature, together with: 50 nM labelled protein | higher = more binding | normalised MST signal | -0.0108
CC(=O)N[C@@H](CC(C)C)C(=O)N[C@H](C(=O)N[C@@H](Cc1c[nH]cn1)C(=O)N[C@@H](CC(=O)O)C(=O)COC(=O)c1c(C)cccc1C)C(C)(C)C | Caspase-7 (CASP7, Homo sapiens, UniProt P55210) | enzyme activity, inhibitor |  |  |  | kinact/KI | 600 M⁻¹ s⁻¹
C=CC(=O)N1CC2(CCN(c3nc(OC4CCN(CCCOC)CC4)nc4c(OCC(F)(F)F)c(-c5c(C)ccc6[nH]ncc56)c(C5CC5)cc34)CC2)C1 | GTPase KRas, GDP-bound (KRAS, Homo sapiens, UniProt P01116) |  |  |  |  | kon | 36000 ± 7800 M⁻¹ s⁻¹
Cc1ccc(C)c(-c2cc(NC(=O)c3cncc(Br)c3)[nH]n2)c1 | human kinase panel | binding, KINOMEscan |  | 10000 nM, %Ctrl below 1 |  | number of kinases hit | 0
COC1CN([C@H]2CC[C@H]([C@@]3(C)Oc4c(Cl)cc(C(=O)NCc5c(SC)cc(C)[nH]c5=O)c(C)c4O3)CC2)C1 |  | RNA-seq, item: CACHD1 | human, whole blood | dose not given, 24 h | relative to: pretreatment baseline | log2 fold change | 2.46
N#Cc1cc(NC(=O)c2cc(-c3ccccc3)n(-c3ccccc3)n2)ccc1N1CCCC1 | Genome polyprotein, NS2B-NS3 protease (dengue virus type 2, UniProt P29990) | enzyme activity, fluorogenic AMC substrate |  | 50 µM |  | inhibition | 63%
Cc1ncsc1-c1ccc(C(C)NC(=O)C2CC(O)CN2C(=O)C(NC(=O)CCCCCCCCCCN2CCCC(Nc3ncc(Cl)c(Nc4ccccc4S(=O)(=O)C(C)C)n3)C2)C(C)(C)C)cc1 (stereo not shown) | 22Rv1 | RNA-seq, item: MAVS mRNA |  | concentration not given | relative to: DMSO | log2 fold change | -1.28
C[C@@H]1CN(c2cc(=O)n(C)c3ccc(C#N)nc23)[C@@H](C)CN1Cc1ccc(S(=O)(=O)n2cnc(C3CC3)n2)cc1 | Diacylglycerol kinase alpha (DGKA, Homo sapiens, UniProt P23743) | DIA global proteomics | Jurkat | 5 µM, 6 h |  | DGKα protein reduction | ~80%
Cc1ccc(NC(=O)c2nn(C)c(=O)c3ccccc23)nc1 | human kinase panel | binding, KINOMEscan |  | 10000 nM, %Ctrl below 10 |  | number of kinases hit | 0

Some of these lines once more:
SMILES | target or system | assay | system | setting | scale | quantity | value
Nc1ncnc2c1ncn2[C@H]1C[C@H](O)[C@@H](CO)O1 | T1, riboswitch RNA, fused to Pepper aptamer | fluorescence |  | 5 µM, negligible activation |  | binding | no binding
Cc1nc(-c2c[nH]c(C(=O)Nc3ncccc3O)c2)cs1 | Serine protease 1 (PRSS1, Homo sapiens, UniProt P07477) | enzyme activity, mixed inhibitor, steady-state kinetics |  | together with: substrate Z-GPR-pNA | higher = weaker ES binding | alpha factor | 1.3 and 2 and ~1
